Measured values gathered from unrelated publications.
Numbered parts are unrelated; each lists some results of a single study. Positions count from the first letter of the parent shown.

Set 1 — target: CCNF, cyclin fold, Cln2 fusion (human); technique: yeast growth competition, sequencing; matrix: yeast; notes: weak parent motif; baseline: not given; direction: higher = stronger binding; quantity: normalised enrichment score
Parent: FZR1 docking peptide (human); QDYERRLLRQIVI
Change = QDYERRLFRQIVI [L8F]; result = 0.615
Change = QAYERRLLRQIVI [D2A]; result = 1.28
Change = QDYEKRLFRQIVI [R5K L8F]; result = 0.297
Change = QDYERRLLRQIVA [I13A]; result = 0.984
Change = QDYERRLLAQIVI [R9A]; result = -0.364
Change = ADYERRLLRQIVI [Q1A]; result = 0.791
Change = QDYERRLARQIVI [L8A]; result = 0.612
Change = QDYERALLRQIVI [R6A]; result = 1.35
Change = QDYEARALRQIVI [R5A L7A]; result = 0.47
Change = QDYERRALRQIVI [L7A]; result = 1.03

Set 2 — technique: protein-binding microarray; form: double-stranded DNA, one strand shown; matrix: in vitro; concentration: 2200 nM top; notes: 60-bp whole probe; together with: salmon DNA 0.4 mg/ml; baseline: random background probes; direction: higher = stronger binding; quantity: fitted relative affinity; shared flanks, not repeated: GCCTAGCAC … GTCTTGATTCGCTTGACGCTGCTG
Target: Interferon regulatory factor 7, full length, phosphomimetic (IRF7, Homo sapiens, UniProt Q92985, residues 1-503, S471D/S472D/S475D/S476D/S477D/S483D/S484D/S487D)
Sequence of UniProt Q92985 (whole entry, unmodified, looked up): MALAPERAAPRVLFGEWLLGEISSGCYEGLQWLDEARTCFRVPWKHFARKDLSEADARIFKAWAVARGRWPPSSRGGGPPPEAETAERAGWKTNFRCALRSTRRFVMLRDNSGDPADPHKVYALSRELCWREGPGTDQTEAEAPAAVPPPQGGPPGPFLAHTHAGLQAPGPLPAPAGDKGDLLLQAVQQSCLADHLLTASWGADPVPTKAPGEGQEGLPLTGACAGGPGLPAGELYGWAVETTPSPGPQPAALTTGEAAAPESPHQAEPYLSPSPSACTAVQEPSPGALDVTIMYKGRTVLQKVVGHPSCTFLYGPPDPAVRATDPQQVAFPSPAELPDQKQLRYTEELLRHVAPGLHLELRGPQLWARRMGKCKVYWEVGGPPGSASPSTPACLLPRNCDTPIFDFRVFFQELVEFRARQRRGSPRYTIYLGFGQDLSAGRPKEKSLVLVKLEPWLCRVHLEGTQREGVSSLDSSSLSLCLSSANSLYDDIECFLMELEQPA
Sequence = GTCAAACTCACTCATGGCTTTGTGCTA; result = 0.529 z-score
Sequence = CTAGGTATCGACTTTCGGTTAGTGCTA; result = 5.48 z-score
Sequence = TTAGGACTGGCTCTCGGTTAGTGCTAG; result = -0.0898 z-score
Sequence = TCAGCTTTCCCGTCCAGACTGTGCTAG; result = 1.92 z-score
Sequence = TTAGGTATCCACTATCGGTTAGTGCTA; result = 0.862 z-score
Sequence = GACGAACTGAGACTGTAGACGTGCTAG; result = -0.0138 z-score
Sequence = GACGATCTCAGTATCGAAACGTGCTAG; result = 0.277 z-score
Sequence = GACGGTCTGGGTCTCGGGACGTGCTAG; result = -0.572 z-score
Sequence = CCACTTTCAGTTCTCCCTTTGTGCTAG; result = 10.8 z-score
Sequence = GTAGGTTTCGACTATCGGTTAGTGCTA; result = 3.24 z-score
Sequence = TTAGATTTCGGGTAGCGATTAGTGCTA; result = 1.99 z-score
Sequence = TTAGTTTTCGGGACTGGATTAGTGCTA; result = 3.44 z-score
Sequence = TTAGGTATCGACTATCGGCTAGTGCTA; result = 0.0843 z-score
Sequence = ACCATTCTCGGGACTCACCTGGTGCTA; result = 1.49 z-score
Sequence = TTAGGTATAGGTTTCGGTTAGTGCTAG; result = 5.28 z-score
Sequence = GCCGATTTCGGGTATCGAGACGTGCTA; result = 3.57 z-score
Sequence = GACGGTTTCGAGTTTCGGGACGTGCTA; result = 8.19 z-score
Sequence = AGACCTTCACCTCTCTGTCCGTGCTAG; result = 1.52 z-score
Sequence = TTAGGACTGTGTATCGGTTAGTGCTAG; result = 0.352 z-score
Sequence = TCATCATTCCTGATCTCACTGTGCTAG; result = 1.75 z-score
Sequence = GACGGACTGGGTATCGGGATGTGCTAG; result = -0.565 z-score
Sequence = ATTTTTTTCTAATTGAAATGGTGCTAG; result = 1.49 z-score

Set 3 — technique: RNA Bind-n-Seq; form: RNA; matrix: in vitro; concentration: 200 nM; notes: whole 134-nt RNA, ends assumed; together with: 150 mM KCl; baseline: input library; direction: higher = stronger binding; quantity: log2 enrichment
Target: Ras GTPase-activating protein-binding protein 1, full length (G3BP1, Homo sapiens, UniProt Q13283)
Sequence of UniProt Q13283 (whole entry, looked up): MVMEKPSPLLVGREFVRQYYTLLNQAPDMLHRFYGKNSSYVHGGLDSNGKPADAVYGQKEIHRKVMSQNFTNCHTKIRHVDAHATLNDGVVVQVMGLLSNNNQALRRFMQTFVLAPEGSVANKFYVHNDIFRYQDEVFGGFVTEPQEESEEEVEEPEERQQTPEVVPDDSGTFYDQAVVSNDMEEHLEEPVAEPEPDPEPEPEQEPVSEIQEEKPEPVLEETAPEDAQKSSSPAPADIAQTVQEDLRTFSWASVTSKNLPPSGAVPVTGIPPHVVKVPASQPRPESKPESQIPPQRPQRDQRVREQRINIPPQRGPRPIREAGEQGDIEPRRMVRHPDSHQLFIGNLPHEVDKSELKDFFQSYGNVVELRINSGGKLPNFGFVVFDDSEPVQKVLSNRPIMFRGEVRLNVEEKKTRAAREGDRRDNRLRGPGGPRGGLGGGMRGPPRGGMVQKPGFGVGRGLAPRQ
Sequence = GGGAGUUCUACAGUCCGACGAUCAAGUCCUGUGCUACACAUCGUAUGUACCGAAUCGGGAAAGGGUUUGGGUUUUUGGGAAAGUAUUAUGUUACGCCGUUCGGAUCUGCACUUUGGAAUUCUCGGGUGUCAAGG; result = -0.0137
Sequence = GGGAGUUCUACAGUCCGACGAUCUGGGAGGUGGAUUUUGUUUAUUUUUUUAGUUCAUUUCCAGGGGUGGGAAUUUUUUUUUAAUAUGUGUCAUGAAUAAAGUUGUUUUUGAAAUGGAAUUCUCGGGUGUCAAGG; result = 0.0792
Sequence = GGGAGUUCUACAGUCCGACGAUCGCAGGAAGUAAAAACAAAUGGAAAUGCUUCGGAUAGUGGCAGGGGUGGGGGUUACUAAGGAAAGGGUGGGAUGGGAGUGGGUAAAGAGUUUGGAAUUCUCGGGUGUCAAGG; result = 0.901
Sequence = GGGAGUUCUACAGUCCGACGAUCGGUAUUCUGCAAGUACUGUAGAUGUUAUAGAAAUGAUGGAGGAUGAUAAAGUUGAUCUGAAUUUGAUUGUUGCCCUCAUCCGAUACAUUGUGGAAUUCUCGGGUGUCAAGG; result = -1.28
Sequence = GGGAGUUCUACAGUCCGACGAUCUCAAGUCCUGUGCUACACAUCGUAUGUACCGAAUCGGGAAAGGAAAGGGAAAGGAAAGUAUUAUGUUACGCCGUUCGGAUCUGCACUUCCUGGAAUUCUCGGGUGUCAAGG; result = -0.844
Sequence = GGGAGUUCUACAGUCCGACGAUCCCUGCUUUUGGGGGUGACCGCCGGAGCGCGGCGUGAGCCCUCCCCCUUGGGAUCCCGCAGCUGACCAGUCGCGCUGACGGACAGACAGACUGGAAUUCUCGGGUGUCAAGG; result = -2.36
Sequence = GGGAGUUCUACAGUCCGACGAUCUCCUGUGCUACACAUCGUAUGUACCGAAUCGGGGAAAAAAGGAAAAAAGGGGAAAAAAGGAAAGUAUUAUGUUACGCCGUUCGGAUCUGCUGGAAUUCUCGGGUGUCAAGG; result = -0.349
Sequence = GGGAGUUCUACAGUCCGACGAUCCUGUGCUACACAUCGUAUGUACCGAAUCGGGGAAAAAAGGGAAAAAAGGGGAAAAAAGGGGAAAGUAUUAUGUUACGCCGUUCGGAUCUGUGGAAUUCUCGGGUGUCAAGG; result = -0.214
Sequence = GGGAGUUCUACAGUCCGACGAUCAGUCCUGUGCUACACAUCGUAUGUACCGAAUCAAAUUUAAAUUUUUAAACCCCCAAAAAAGUAUUAUGUUACGCCGUUCGGAUCUGCACUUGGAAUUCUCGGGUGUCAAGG; result = -0.388
Sequence = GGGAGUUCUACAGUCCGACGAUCUCCUCAAGUCCUGUGCUACACAUCGUAUGUACCGAAUCGGAGGAGGAAAGGAAAGUAUUAUGUUACGCCGUUCGGAUCUGCACUUCCAGCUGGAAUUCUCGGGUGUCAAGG; result = -0.728

Set 4 — technique: DHFR PCA, deep sequencing; matrix: yeast; together with: (+)-ABA 58 µM; baseline: wild-type fitted maximum; direction: higher = stronger binding; quantity: relative binding score
Target: ABI1, truncated, D143A, DHFR fusion (Arabidopsis thaliana)
Notes: methotrexate growth selection, single substitutions
Parent: PYL1, truncated, DHFR fusion (Arabidopsis thaliana); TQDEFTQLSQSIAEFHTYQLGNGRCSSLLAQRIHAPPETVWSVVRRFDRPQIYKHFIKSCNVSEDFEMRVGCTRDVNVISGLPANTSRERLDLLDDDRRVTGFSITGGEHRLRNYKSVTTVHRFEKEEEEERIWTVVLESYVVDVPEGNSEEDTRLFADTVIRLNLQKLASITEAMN; partner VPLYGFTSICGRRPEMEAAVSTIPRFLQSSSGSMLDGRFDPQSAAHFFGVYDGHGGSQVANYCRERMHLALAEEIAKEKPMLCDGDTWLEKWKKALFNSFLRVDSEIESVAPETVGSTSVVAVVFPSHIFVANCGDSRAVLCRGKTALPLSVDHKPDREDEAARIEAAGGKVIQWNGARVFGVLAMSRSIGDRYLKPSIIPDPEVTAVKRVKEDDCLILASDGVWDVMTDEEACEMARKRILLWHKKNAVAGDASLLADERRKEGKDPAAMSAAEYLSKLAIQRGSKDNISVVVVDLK
Change = E147W; result = 70.1%
Change = D75L; result = 87.2%
Change = E129A; result = 98.7%
Change = D75C; result = 84.7%
Change = Q31R; result = 83.4%
Change = Y18V; result = 78%
Change = I12W; result = 34.1%
Change = S150W; result = 14.9%
Change = L138Q; result = 32.4%
Change = L156G; result = 70.7%
Change = S150M; result = 45.3%
Change = N22T; result = 89.3%
Change = P36K; result = 84.8%
Change = F103V; result = 9.54%
Change = G23I; result = 37.5%
Change = E131I; result = 94.1%

Excerpt of the above (set 2):
Sequence = GACGAACTGAGACTGTAGACGTGCTAG; result = -0.0138 z-score
Sequence = GACGGTCTGGGTCTCGGGACGTGCTAG; result = -0.572 z-score
Sequence = TTAGGTATAGGTTTCGGTTAGTGCTAG; result = 5.28 z-score
Sequence = ACCATTCTCGGGACTCACCTGGTGCTA; result = 1.49 z-score
Sequence = TTAGGACTGGCTCTCGGTTAGTGCTAG; result = -0.0898 z-score
Sequence = CCACTTTCAGTTCTCCCTTTGTGCTAG; result = 10.8 z-score
Sequence = GTCAAACTCACTCATGGCTTTGTGCTA; result = 0.529 z-score
Sequence = GACGGTTTCGAGTTTCGGGACGTGCTA; result = 8.19 z-score
